Measured values collected from several papers.
Lines come from different studies, so protocols differ. “And” joins repeats or separate records; there may be more than shown. In brackets after ≈: the same amount, converted by molar mass.
Organism: Staphylococcus aureus

Compound	assay	test system	setting	scale	quantity	result
CC[C@H](C)[C@H](NC(=O)[C@H](C)NC(=O)[C@H](CCCCN)NC(=O)[C@H](CC(C)C)NC(=O)[C@H](C)NC(=O)[C@@H](NC(=O)[C@H](Cc1c[nH]cn1)NC(=O)[C@H](CC(C)C)NC(=O)[C@@H](NC(=O)[C@@H](NC(=O)[C@H](CCCCN)NC(=O)[C@H](C)NC(=O)[C@H](C)NC(=O)[C@H](CO)NC(=O)[C@H](CCCCN)NC(=O)[C@H](Cc1ccccc1)NC(=O)[C@@H](NC(=O)[C@H](CCCCN)NC(=O)[C@H](CC(C)C)NC(=O)[C@H](Cc1ccccc1)NC(=O)[C@H](CO)NC(=O)[C@H](CCCCN)NC(=O)[C@H](Cc1c[nH]c2ccccc12)NC(=O)[C@H](CCCCN)NC(C)=O)[C@@H](C)O)[C@@H](C)O)C(C)C)[C@@H](C)O)C(=O)N[C@@H](CO)C(=O)N[C@@H](CO)C(N)=O	–	ATCC 29213	–	–	MIC geometric mean	8 µg/mL (≈ 2.73 µM)
CCCCCCCCCC(=O)N[C@@H](Cc1c[nH]c2ccccc12)C(=O)N[C@H](CC(N)=O)C(=O)N[C@@H](CC(=O)O)C(=O)N[C@@H]1C(=O)NCC(=O)N[C@@H](CCCN)C(=O)N[C@@H](CC(=O)O)C(=O)N[C@H](C)C(=O)N[C@@H](CC(=O)O)C(=O)NCC(=O)N[C@H](CO)C(=O)N[C@@H]([C@H](C)CC(=O)O)C(=O)N[C@@H](CC(=O)c2ccccc2N)C(=O)O[C@@H]1C	broth microdilution	BR-VRSA strain 880, Mueller-Hinton broth, Mg2+ 10 mg/L	16 h, with: Ca2+ 5 mM	–	MIC	0.25 µg/mL (≈ 0.154 µM)
CO/N=C(\C(=O)N[C@@H]1C(=O)N2C(C(=O)O)=C(CSC(=O)c3ccco3)CS[C@H]12)c1csc(N)n1	–	CAAS-2019-CAAS-2019-02 clinical drug-resistant isolate, PBS	–	–	MBC	2 µg/mL
CN[C@H](CC(C)C)C(=O)N[C@H]1C(=O)N[C@@H](CC(N)=O)C(=O)N[C@H]2C(=O)N[C@H]3C(=O)N[C@H](C(=O)N[C@H](C(=O)O)c4cc(O)cc(O)c4-c4cc3ccc4O)[C@H](O)c3ccc(c(Cl)c3)Oc3cc2cc(c3O[C@@H]2O[C@H](CO)[C@@H](O)[C@H](O)[C@H]2O[C@H]2C[C@](C)(N)[C@H](O)[C@H](C)O2)Oc2ccc(cc2Cl)[C@H]1O	–	MRSA strain 2	–	–	MIC	2 µg/mL (≈ 1.38 µM)
CC[C@H](C)[C@H](NC(=O)[C@H](CCCCN)NC(=O)[C@H](CCCCN)NC(=O)[C@H](Cc1ccccc1)NC(=O)[C@@H](NC(=O)[C@@H](NC(=O)[C@H](CCCNC(=N)N)NC(=O)[C@H](Cc1ccccc1)NC(=O)[C@@H](NC(=O)[C@H](CCCCN)NC(=O)[C@H](CCCCN)NC(=O)[C@@H](N)CCSC)[C@@H](C)CC)C(C)C)[C@@H](C)CC)C(=O)N[C@@H](CC(C)C)C(=O)N[C@@H](CCCCN)C(=O)N[C@@H](CCCNC(=N)N)C(=O)N[C@@H](CC(C)C)C(=O)N[C@H](C(=O)N[C@H](C(=O)O)C(C)C)[C@@H](C)CC	broth microdilution	GU-1 MRSA	with: 1 mM MgSO4	–	MIC	4 µg/mL (≈ 1.76 µM)
Cc1c2c(nn1C)CSCc1cc(n(C)n1)CSc1cc(c3ccccc3c1)OCCCc1c(C(=O)O)n(C)c3c-2c(Cl)ccc13	label-free quantitative proteomics, measured: SAOUHSC_02828 protein	SA113	concentration not given	baseline: untreated control	log2 fold change	3.21
CN[C@H](CC(C)C)C(=O)N[C@H]1C(=O)N[C@@H](CC(N)=O)C(=O)N[C@H]2C(=O)N[C@H]3C(=O)N[C@H](C(=O)N[C@H](C(=O)O)c4cc(O)cc(O)c4-c4cc3ccc4O)[C@H](O)c3ccc(c(Cl)c3)Oc3cc2cc(c3O[C@@H]2O[C@H](CO)[C@@H](O)[C@H](O)[C@H]2O[C@H]2C[C@](C)(N)[C@H](O)[C@H](C)O2)Oc2ccc(cc2Cl)[C@H]1O	–	CAAS-2019-CAAS-2019-14 clinical blaZ-resistant isolate, 25% plasma	–	–	MBC	4 µg/mL (≈ 2.76 µM)
OB(O)c1csc2ccccc12	OD600	USA300 fphE::Tn transposon mutant	100 µM	baseline: wild type	growth	52.3% and 50.9% and 57.3% and 43.9% and 62.9% and 59.8%

Some of these lines once more:
Compound	assay	test system	setting	scale	quantity	result
CO/N=C(\C(=O)N[C@@H]1C(=O)N2C(C(=O)O)=C(CSC(=O)c3ccco3)CS[C@H]12)c1csc(N)n1	–	CAAS-2019-CAAS-2019-02 clinical drug-resistant isolate, PBS	–	–	MBC	2 µg/mL
